Published values gathered from unrelated publications.
A part holds a random share of what one study measured.
UniProt P00519, sequence (whole entry, unmodified, looked up): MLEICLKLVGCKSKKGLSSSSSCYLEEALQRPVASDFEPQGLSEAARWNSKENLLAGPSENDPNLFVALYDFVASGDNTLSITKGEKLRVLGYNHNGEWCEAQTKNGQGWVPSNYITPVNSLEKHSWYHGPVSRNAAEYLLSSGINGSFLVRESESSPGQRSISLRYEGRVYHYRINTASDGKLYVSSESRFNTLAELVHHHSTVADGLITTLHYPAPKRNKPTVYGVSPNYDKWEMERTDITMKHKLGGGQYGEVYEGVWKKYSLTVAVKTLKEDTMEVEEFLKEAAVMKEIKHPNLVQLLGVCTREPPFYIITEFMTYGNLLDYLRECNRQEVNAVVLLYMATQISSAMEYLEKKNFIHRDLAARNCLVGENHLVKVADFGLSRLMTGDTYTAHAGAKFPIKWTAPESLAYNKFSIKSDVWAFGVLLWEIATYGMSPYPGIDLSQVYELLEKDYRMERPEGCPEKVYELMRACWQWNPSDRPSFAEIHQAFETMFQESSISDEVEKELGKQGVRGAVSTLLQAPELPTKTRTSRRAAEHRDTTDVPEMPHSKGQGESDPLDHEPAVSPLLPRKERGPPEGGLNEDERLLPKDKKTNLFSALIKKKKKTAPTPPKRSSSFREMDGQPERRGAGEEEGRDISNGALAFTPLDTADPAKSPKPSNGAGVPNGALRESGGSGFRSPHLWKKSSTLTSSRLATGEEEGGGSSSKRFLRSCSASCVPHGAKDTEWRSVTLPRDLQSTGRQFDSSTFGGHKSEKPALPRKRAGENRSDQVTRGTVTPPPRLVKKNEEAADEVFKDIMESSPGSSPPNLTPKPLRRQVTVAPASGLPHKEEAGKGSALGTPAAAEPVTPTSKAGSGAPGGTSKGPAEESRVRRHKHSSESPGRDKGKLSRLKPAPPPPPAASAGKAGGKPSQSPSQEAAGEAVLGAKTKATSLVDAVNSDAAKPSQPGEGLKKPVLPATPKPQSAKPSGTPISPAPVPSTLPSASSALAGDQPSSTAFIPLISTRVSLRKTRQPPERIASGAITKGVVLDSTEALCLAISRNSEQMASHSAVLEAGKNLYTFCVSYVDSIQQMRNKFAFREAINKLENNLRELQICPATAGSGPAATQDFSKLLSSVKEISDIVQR
UniProt P42685, sequence (whole entry, looked up): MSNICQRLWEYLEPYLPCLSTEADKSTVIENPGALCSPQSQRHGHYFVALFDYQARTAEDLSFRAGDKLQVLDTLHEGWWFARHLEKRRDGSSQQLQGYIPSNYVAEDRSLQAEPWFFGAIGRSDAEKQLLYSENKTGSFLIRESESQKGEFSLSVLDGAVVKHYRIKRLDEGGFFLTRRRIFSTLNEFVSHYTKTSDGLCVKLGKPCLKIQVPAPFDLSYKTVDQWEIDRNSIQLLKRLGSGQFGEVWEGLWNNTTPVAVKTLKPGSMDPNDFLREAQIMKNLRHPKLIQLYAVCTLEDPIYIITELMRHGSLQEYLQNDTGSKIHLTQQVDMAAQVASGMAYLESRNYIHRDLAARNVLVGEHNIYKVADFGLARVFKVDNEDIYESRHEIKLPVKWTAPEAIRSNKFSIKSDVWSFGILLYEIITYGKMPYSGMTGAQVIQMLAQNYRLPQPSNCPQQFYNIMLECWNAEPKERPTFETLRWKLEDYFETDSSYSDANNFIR
UniProt Q07002, sequence (whole entry, looked up): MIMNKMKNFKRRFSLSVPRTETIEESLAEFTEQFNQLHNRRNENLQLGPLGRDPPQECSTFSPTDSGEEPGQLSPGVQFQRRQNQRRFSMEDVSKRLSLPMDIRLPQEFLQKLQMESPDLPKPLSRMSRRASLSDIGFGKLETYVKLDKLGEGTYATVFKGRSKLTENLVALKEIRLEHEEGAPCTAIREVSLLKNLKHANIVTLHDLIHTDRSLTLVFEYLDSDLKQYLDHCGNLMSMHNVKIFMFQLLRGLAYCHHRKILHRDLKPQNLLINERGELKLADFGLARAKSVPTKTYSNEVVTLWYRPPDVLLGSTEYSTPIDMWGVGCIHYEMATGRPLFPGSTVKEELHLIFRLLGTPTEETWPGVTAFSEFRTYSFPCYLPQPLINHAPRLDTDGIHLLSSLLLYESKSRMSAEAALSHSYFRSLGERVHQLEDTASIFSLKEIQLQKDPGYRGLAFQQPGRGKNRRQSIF
UniProt Q8NE63, sequence (whole entry, looked up): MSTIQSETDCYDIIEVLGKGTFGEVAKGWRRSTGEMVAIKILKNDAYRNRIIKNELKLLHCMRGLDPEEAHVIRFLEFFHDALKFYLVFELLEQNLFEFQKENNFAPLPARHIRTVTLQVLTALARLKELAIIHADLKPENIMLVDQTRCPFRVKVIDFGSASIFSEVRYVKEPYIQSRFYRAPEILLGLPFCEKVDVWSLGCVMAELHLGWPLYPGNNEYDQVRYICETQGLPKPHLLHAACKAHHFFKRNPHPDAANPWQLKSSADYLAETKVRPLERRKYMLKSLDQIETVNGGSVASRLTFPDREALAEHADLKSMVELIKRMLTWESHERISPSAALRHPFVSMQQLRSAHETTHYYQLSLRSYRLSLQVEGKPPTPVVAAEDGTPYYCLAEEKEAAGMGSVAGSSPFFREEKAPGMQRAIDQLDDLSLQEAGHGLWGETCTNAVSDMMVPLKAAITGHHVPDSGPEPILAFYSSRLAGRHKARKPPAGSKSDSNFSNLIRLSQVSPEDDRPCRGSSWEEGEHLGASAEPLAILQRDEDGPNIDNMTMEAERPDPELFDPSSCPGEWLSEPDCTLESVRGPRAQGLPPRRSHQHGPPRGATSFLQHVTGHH
UniProt Q15835, sequence (whole entry, looked up): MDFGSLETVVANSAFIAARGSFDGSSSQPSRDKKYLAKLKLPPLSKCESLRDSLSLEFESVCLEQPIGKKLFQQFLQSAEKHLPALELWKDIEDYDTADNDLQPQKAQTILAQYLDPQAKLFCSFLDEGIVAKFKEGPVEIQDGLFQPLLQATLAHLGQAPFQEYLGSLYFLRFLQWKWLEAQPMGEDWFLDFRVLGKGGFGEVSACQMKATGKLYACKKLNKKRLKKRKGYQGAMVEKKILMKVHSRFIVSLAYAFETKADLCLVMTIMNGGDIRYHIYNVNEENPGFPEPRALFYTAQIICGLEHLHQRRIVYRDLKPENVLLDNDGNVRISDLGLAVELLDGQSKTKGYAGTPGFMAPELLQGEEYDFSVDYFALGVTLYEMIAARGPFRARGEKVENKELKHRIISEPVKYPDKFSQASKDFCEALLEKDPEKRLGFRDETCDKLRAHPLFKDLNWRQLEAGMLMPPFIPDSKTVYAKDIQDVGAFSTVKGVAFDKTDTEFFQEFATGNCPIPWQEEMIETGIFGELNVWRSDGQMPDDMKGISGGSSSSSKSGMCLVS

Series 1
Cell line: HaCaT
Tested at: 100 µM
Time: 18 h
Quantity: viability
C[C@H](CCC(=O)O)[C@H]1CC[C@H]2[C@@H]3C(=O)C[C@@H]4CC(=O)CC[C@]4(C)[C@H]3CC(=O)[C@]12C: 94.6%
CC(=O)c1ccc(S(=O)(=O)NC(=O)NC2CCCCC2)cc1: 107%
CC(=O)Nc1c(I)c(NC(C)=O)c(I)c(C(=O)O)c1I: 117%
CCN(CC)CCNC(=O)c1cc(S(C)(=O)=O)ccc1OC: 99.2%
NCCCC[C@H](NC(=O)[C@@H]1CCCN1C(=O)[C@@H]1CSSC[C@H](N)C(=O)N[C@@H](Cc2ccccc2)C(=O)N[C@@H](Cc2ccccc2)C(=O)N[C@@H](CCC(N)=O)C(=O)N[C@@H](CC(N)=O)C(=O)N1)C(=O)NCC(N)=O: 112%
C#C[C@]1(O)CC[C@H]2[C@@H]3CCc4cc(O)ccc4[C@H]3CC[C@@]21C: 29.4%
Nc1ccc(S(=O)(=O)Nc2ncccn2)cc1: 85.5%
COCCOC(=O)C1=C(C)NC(C)=C(C(=O)OC(C)C)C1c1cccc([N+](=O)[O-])c1 (centres unmarked): 50.5%

Series 2
Target: Receptor tyrosine-protein kinase erbB-4 (ERBB4, Homo sapiens, UniProt Q15303)
UniProt Q15303, sequence (whole entry, looked up): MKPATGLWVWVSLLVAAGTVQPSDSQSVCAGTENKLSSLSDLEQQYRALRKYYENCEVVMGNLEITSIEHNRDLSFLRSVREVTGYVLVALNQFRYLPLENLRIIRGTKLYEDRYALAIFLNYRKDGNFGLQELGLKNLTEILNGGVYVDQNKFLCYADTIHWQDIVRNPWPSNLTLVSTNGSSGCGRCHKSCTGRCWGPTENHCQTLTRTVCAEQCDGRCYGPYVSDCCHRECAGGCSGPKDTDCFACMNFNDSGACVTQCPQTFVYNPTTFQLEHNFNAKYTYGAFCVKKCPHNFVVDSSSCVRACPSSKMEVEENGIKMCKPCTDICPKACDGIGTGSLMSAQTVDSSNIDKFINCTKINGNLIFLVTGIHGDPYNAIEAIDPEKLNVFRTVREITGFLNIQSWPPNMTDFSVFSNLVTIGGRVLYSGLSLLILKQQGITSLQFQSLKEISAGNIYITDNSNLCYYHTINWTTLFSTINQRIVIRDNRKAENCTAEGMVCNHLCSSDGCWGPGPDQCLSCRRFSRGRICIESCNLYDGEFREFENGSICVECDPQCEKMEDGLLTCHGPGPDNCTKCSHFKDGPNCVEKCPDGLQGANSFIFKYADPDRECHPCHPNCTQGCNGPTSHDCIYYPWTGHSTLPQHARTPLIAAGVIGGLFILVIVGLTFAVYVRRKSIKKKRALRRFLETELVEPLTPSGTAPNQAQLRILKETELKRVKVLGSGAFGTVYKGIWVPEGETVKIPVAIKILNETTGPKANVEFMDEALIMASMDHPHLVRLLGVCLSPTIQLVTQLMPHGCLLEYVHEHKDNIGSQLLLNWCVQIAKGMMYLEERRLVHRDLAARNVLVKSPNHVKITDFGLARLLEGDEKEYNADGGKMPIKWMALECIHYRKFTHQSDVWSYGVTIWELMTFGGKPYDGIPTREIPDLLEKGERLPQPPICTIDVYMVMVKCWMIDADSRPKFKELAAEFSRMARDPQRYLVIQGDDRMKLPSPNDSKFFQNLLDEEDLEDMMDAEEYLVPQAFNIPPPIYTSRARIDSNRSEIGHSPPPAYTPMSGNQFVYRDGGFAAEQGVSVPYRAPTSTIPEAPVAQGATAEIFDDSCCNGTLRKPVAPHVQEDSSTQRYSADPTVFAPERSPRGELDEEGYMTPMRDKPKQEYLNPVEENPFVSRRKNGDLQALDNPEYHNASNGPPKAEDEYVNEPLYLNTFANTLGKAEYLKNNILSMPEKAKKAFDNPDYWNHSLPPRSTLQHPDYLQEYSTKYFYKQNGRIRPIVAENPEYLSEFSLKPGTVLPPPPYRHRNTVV
Read-out: enzyme activity
Action: inhibitor
Tested at: 0.5 µM
Baseline: control
Quantity: remaining activity
Clc1ccc(Nc2nnc(Cc3ccncc3)c3ccccc23)cc1: 104%
N#CC(c1ccnc(NCCc2cccnc2)n1)c1nc2ccccc2s1 (centres unmarked): 83.1%
CCCCc1c(-c2ccc(O)cc2)[nH]c2nccnc12: 102%
O=C(O)/C=C/c1cc(Br)c(Br)c(Br)c1Br: 104%
O=C(c1ccccc1)c1ccc(N2CCOCC2)cc1O: 102%
O=c1c(-c2ccc(F)cc2)c(-c2ccncc2)[nH]n1-c1ccc(Cl)cc1: 73.2%
NC(=O)c1cccc(-c2cc(Nc3ccc(OC(F)(F)F)cc3)ncn2)c1: 85.3%
CNc1cc2c(Nc3cccc(Br)c3)ncnc2cn1: 58.6%
CCN(CC)CCCCN1c2ccccc2Oc2ccc(Cl)cc21: 102%
O=Nc1c(-c2c(O)[nH]c3ccccc23)[nH]c2ccccc12: 102%
CC(C)N(CCC(=O)c1ccc2ccccc2c1)Cc1ccccc1: 91.7%
NC(=O)c1ccc(-c2nc(-c3ccc4c(c3)OCCO4)c(-c3ccccn3)[nH]2)cc1: 104%
C[C@@H](N)[C@H]1CC[C@H](C(=O)Nc2ccncc2)CC1: 93.5%
O=C1NC(=O)/C(=C/c2ccc3c(c2)OC(F)(F)O3)S1: 99.5%
N#C/C(=C(/N)SC1C=CC=CC1)c1cccc(C(O)c2ccncc2)c1 (centres unmarked): 98%
CC(C)(C)c1nc2c3cc[nH]c(=O)c3c3cc(F)ccc3c2[nH]1: 99.9%
COc1cc2c(Nc3ccc(Br)cc3F)ncnc2cc1OCC1CCN(C)CC1: 45.6%
c1cc(-c2cnn3cc(-c4ccc(OCCN5CCCCC5)cc4)cnc23)ccn1: 95.4%
CC(C)n1cnc2c(Nc3cccc(Cl)c3)nc(NCCO)nc21: 101%
Nc1nc(Nc2ccc(S(N)(=O)=O)cc2)nn1C(=S)Nc1c(F)cccc1F: 98%
O=C1c2ccccc2-c2nc3nnnn3nc21: 50.2%
FC(F)(F)c1ccc(/C=C/c2nc(COc3ccc(CCCCn4ccnn4)cc3)co2)cc1: 99.6%

Series 3
Target: Calcium/calmodulin-dependent protein kinase type II subunit alpha (CAMK2A, Homo sapiens, UniProt Q9UQM7)
UniProt Q9UQM7, sequence (whole entry, looked up): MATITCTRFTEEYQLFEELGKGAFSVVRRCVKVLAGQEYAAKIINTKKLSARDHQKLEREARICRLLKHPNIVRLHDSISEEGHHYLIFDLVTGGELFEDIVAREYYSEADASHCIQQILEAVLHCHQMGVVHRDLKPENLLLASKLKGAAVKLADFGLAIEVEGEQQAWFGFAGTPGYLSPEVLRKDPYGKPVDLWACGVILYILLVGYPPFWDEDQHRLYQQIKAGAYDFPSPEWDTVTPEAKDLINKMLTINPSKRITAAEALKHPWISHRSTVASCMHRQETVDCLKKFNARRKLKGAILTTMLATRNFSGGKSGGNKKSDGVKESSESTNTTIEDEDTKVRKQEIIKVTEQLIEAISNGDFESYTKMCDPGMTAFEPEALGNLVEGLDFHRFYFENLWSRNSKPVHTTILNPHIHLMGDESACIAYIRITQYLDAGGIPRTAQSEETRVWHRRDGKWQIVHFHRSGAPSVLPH
Read-out: enzyme activity
Action: inhibitor
Tested at: 10 µM
Quantity: inhibition
C[C@@H]1O[C@@H](OC[C@H]2O[C@@H](Oc3c(-c4ccc(OCCO)c(OCCO)c4)oc4cc(OCCO)cc(O)c4c3=O)[C@H](O)[C@@H](O)[C@@H]2O)[C@H](O)[C@H](O)[C@H]1O: 2%
COc1cc(-c2oc3cc(O)cc(O)c3c(=O)c2O[C@@H]2O[C@H](CO[C@@H]3O[C@@H](C)[C@H](O)[C@@H](O)[C@H]3O)[C@@H](O)[C@H](O)[C@H]2O)ccc1O: -108%
CN(C)CCC=C1c2ccccc2C(C)(C)c2ccccc21: -9%
Cc1cn([C@@H]2O[C@H](CO)[C@@H](O)[C@H]2O)c(=O)nc1N: 5%
CCOCc1ccccc1: -21%
C[C@]12CC[C@@H]3c4ccc(O)cc4CC[C@H]3[C@@H]1CC[C@@H]2OC(=O)CCC1CCCC1: -8%
CN1C(=O)/C(=C2/C(=O)Nc3ccccc32)c2ccccc21: 3%
O=C1Cc2ccccc2N1: 0%
O=c1oc2cc(O)ccc2c2cc(O)c(O)cc12: -98%
c1ccc2[nH]ccc2c1: -64%
C[C@@H]1C[C@H]2O[C@@]3(O[C@@H]2C(C)(C)O)[C@H](O)[C@@]2(C)[C@@H]4CC[C@H]5C(C)(C)[C@@H](O)CC[C@@]56C[C@@]46CC[C@]2(C)[C@@H]13: -9%
C=CCc1ccc(O)c(-c2cc(CC=C)ccc2O)c1: 0%
C[C@@H](O)[C@H]1C(=O)N2C(C(=O)[O-])=C(SC3Cn4cnc[n+]4C3)[C@H](C)[C@H]12 (some centres unmarked): -11%

Series 4
SMILES: COc1cccc(CNC(=O)c2nc3scc(COCc4ccc(C(=O)O)cc4)c3c(=O)[nH]2)c1
Method: competition with immobilised ligand
Tested at: 1 µM
Quantity: remaining binding
Serine/threonine-protein kinase WNK1 (WNK1, Homo sapiens, UniProt Q9H4A3); cell-free assay: 76.7%
Cyclin-dependent kinase 18 (CDK18, Homo sapiens, UniProt Q07002); cell-free assay: 100%
Tyrosine-protein kinase FRK (FRK, Homo sapiens, UniProt P42685); cell-free assay: 83.7%
Serine/threonine-protein kinase ULK2 (ULK2, Homo sapiens, UniProt Q8IYT8); cell-free assay: 70.8%
Cyclin-dependent kinase-like 3 (CDKL3, Homo sapiens, UniProt Q8IVW4); cell-free assay: 100%
Protein kinase C epsilon type (PRKCE, Homo sapiens, UniProt Q02156); cell-free assay: 62%
Rhodopsin kinase GRK1 (GRK1, Homo sapiens, UniProt Q15835); cell-free assay: 57.5%
eIF-2-alpha kinase GCN2, C-terminal kinase domain (EIF2AK4, Homo sapiens, UniProt Q9P2K8, S808G); cell-free assay: 100%
Cyclin-dependent kinase-like 2 (CDKL2, Homo sapiens, UniProt Q92772); cell-free assay: 66.8%
Homeodomain-interacting protein kinase 4 (HIPK4, Homo sapiens, UniProt Q8NE63); cell-free assay: 94.3%
Ephrin type-A receptor 4 (EPHA4, Homo sapiens, UniProt P54764); cell-free assay: 91.1%
Serine/threonine-protein kinase RIO1 (RIOK1, Homo sapiens, UniProt Q9BRS2); cell-free assay: 52.1%
Mitogen-activated protein kinase kinase kinase 12 (MAP3K12, Homo sapiens, UniProt Q12852); cell-free assay: 58.2%
Tyrosine-protein kinase ABL1, non-phosphorylated (ABL1, Homo sapiens, UniProt P00519, F317I); binding: 96.4%
NUAK family SNF1-like kinase 1 (NUAK1, Homo sapiens, UniProt O60285); cell-free assay: 86.6%
Insulin receptor (INSR, Homo sapiens, UniProt P06213); cell-free assay: 76.2%
Activin receptor type-1-like (ACVRL1, Homo sapiens, UniProt P37023); cell-free assay: 100%
Serine/threonine-protein kinase MAK (MAK, Homo sapiens, UniProt P20794); cell-free assay: 100%
Serine/threonine-protein kinase DCLK1 (DCLK1, Homo sapiens, UniProt O15075); cell-free assay: 60.4%

For quick reference, copied from above (series 3):
C[C@@H]1O[C@@H](OC[C@H]2O[C@@H](Oc3c(-c4ccc(OCCO)c(OCCO)c4)oc4cc(OCCO)cc(O)c4c3=O)[C@H](O)[C@@H](O)[C@@H]2O)[C@H](O)[C@H](O)[C@H]1O: 2%
COc1cc(-c2oc3cc(O)cc(O)c3c(=O)c2O[C@@H]2O[C@H](CO[C@@H]3O[C@@H](C)[C@H](O)[C@@H](O)[C@H]3O)[C@@H](O)[C@H](O)[C@H]2O)ccc1O: -108%
CN(C)CCC=C1c2ccccc2C(C)(C)c2ccccc21: -9%
Cc1cn([C@@H]2O[C@H](CO)[C@@H](O)[C@H]2O)c(=O)nc1N: 5%
CCOCc1ccccc1: -21%
C[C@]12CC[C@@H]3c4ccc(O)cc4CC[C@H]3[C@@H]1CC[C@@H]2OC(=O)CCC1CCCC1: -8%
CN1C(=O)/C(=C2/C(=O)Nc3ccccc32)c2ccccc21: 3%
